Measured values collected from several papers.
Protocols differ between the studies behind these lines.
Observed: cell growth or viability

O=C(Nc1ccc(Oc2nnc(-c3ccc(Cl)cc3)c3ccccc23)cc1)c1ccccc1
cell death (MCF7; MTT; 1.25 µM): 95.3%

CCC(=CCc1c(O)cc2c(c1O)C(=O)CC(c1ccc(O)cc1)O2)CC (stereo in doubt)
inhibition (HeLa; MTT; 12.5 µM, 48 h): 19.9%

CCCC(=O)Nc1ccc(-c2ccc3ncn(Cc4ccccc4)c(=O)c3c2)cn1
IC50 (HCC827; CCK-8; 72 h): > 10 µM

CC(C)Nc1ccnc(Nc2cccc(-c3cnccn3)c2)n1
EC50 (BJ; ATP luminescence; 72 h): > 18 µM

CCCCn1cnc2ccc(-c3ccc(NC(=O)C4CCCCC4)nc3)cc2c1=O
IC50 (HCC827; CCK-8; 72 h): 1.41 µM

CC(=NNC(=O)c1ccc(N)cc1)c1ccc(Nc2nnc(-c3ccc(Cl)cc3)c3ccccc23)cc1
cell death (HepG2; MTT; 1.25 µM): 54%

CC#CCn1cnc2ccc(-c3ccc(NC(=O)CCCC)nc3)cc2c1=O
IC50 (NCI-H1975; CCK-8; 72 h): > 10 µM

CC(=NNC(=O)c1ccncc1)c1ccc(Nc2nnc(-c3ccc(Cl)cc3)c3ccccc23)cc1
cell death (HepG2; MTT; 10 µM): 94.6%

C=C(F)C(=O)N1CCN(c2nc(OC[C@@H]3CCCN3C)nc3c2CCN(c2cccc4cccc(Cl)c24)C3)C[C@@H]1CC#N
IC50 (SW1573; ATP luminescence): > 10 µM

CC(C)Nc1ccnc(Nc2cccc(-c3nccs3)c2)n1
EC50 (BJ; ATP luminescence; 72 h): > 21 µM

CCCCn1cnc2ccc(-c3ccc(NC(=O)Nc4ccc(C)cc4)nc3)cc2c1=O
IC50 (NCI-H1975; CCK-8; 72 h): > 10 µM

CC(=NNC(N)=S)c1ccc(Nc2nnc(-c3ccc(Cl)cc3)c3ccccc23)cc1
cell death (HepG2; MTT; 0.156 µM): 53.5%

CC(C)Nc1ccnc(Nc2cccc(-c3cc[nH]n3)c2)n1
EC50 (BJ; ATP luminescence; 72 h): > 36 µM

CC(=NNC(=O)c1ccccc1)c1ccc(Nc2nnc(-c3ccc(Cl)cc3)c3ccccc23)cc1
cell death (HepG2; MTT; 0.625 µM): 51.3%

c1ccc(-c2cccc(Nc3nccc(NC4CCCCC4)n3)c2)nc1
EC50 (BJ; ATP luminescence; 72 h): 12.1 µM
